# Measurements of several laboratories.
# Each line is one published result; not all experiments were run side by side. ± gives the spread as reported.
Structure (SMILES),test,test system,conditions,AUC(0-t)
CN1CCN(c2ccc3nc(-c4c(N)c5c(F)cccc5[nH]c4=O)[nH]c3c2)CC1,,"NOD/SCID mice, male, blood or plasma","oral, 30 mg/kg once daily, day 1",6080 ± 710 ng·h/mL
CS(=O)(=O)n1cc2c(n1)CN([C@H]1CO[C@H](c3cc(F)ccc3F)[C@@H](N)C1)C2,,"male human, plasma","oral, 25 mg, single dose, fasted, healthy volunteers",20.9 µM·h
OCCc1ccc(O)cc1,,"normal-weight male C57BL/6J mice, brain","oral, 200 mg/kg, 0 to 12 h, low-fat diet",4.21 ± 0.2 nmol·min/g
Cc1ccc(NC(=O)c2ccc(CN3CCN(C)CC3)cc2)cc1Nc1nccc(-c2cncc(-c3oncc3C)c2)n1,,"healthy volunteers, plasma","oral, 25.0 mg once daily, day 7, 7-day dosing, mean",46000 ng·h/mL
CNCc1ccc(-c2[nH]c3cc(F)cc4c3c2CCNC4=O)cc1,,"human patients, plasma","oral, 160 mg once daily, day 1, 24 h, single dose, arithmetic mean",3050 ng·h/mL
CC(C)=CCC[C@](C)(O[C@@H]1O[C@H](CO)[C@@H](O)[C@H](O)[C@H]1O)[C@H]1CC[C@]2(C)[C@@H]1[C@H](O)C[C@@H]1[C@@]3(C)CC[C@H](O[C@@H]4O[C@H](CO)[C@@H](O)[C@H](O)[C@H]4O[C@@H]4O[C@H](CO)[C@@H](O)[C@H](O)[C@H]4O)C(C)(C)[C@@H]3CC[C@]12C,LC-MS/MS,"healthy volunteers, serum","oral, 3 g fermented red ginseng",164 ± 77.6 ng·h/mL
CC[C@H](C)[C@@H]1NC(=O)[C@H](Cc2ccc(O)cc2)NC(=O)[C@@H](N)CSSC[C@@H](C(=O)N2CCC[C@H]2C(=O)N[C@@H](CC(C)C)C(=O)NCC(N)=O)NC(=O)[C@H](CC(N)=O)NC(=O)[C@H](CCC(N)=O)NC1=O,"microdialysis, radioimmunoassay","C57BL/6J male mice, wild type, hippocampus extracellular fluid","intraperitoneal, 12 µg total, total area from zero",151 ± 89 pg·30 min/sample
CCCCCN1C[C@H](O)[C@@H](O)[C@H](O)[C@@H]1CO,,"human, plasma","oral, 1000 mg, single dose, fasted, healthy volunteers",50000 ng·h/mL
OCCc1ccc(O)c(O)c1,,"female C57BL/6J mice, brain","oral, 200 mg/kg, 0 to 12 h, low-fat diet",0.014 ± 0.002 nmol·min/g
CC(C)=CCC[C@](C)(O[C@@H]1O[C@H](CO)[C@@H](O)[C@H](O)[C@H]1O)[C@H]1CC[C@]2(C)[C@@H]1[C@H](O)C[C@@H]1[C@@]3(C)CC[C@H](O[C@@H]4O[C@H](CO)[C@@H](O)[C@H](O)[C@H]4O)C(C)(C)[C@@H]3CC[C@]12C,LC-MS/MS,"healthy volunteers, serum","oral, 3 g fermented red ginseng",27.2 ± 37.2 ng·h/mL
CC(=O)C=Cc1ccc(O)c(O)c1,,"normal-weight male C57BL/6J mice, brain","oral, 200 mg/kg, 0 to 12 h, low-fat diet",0.19 ± 0.022 nmol·min/g
CS(=O)(=O)n1cc2c(n1)CN([C@H]1CO[C@H](c3cc(F)ccc3F)[C@@H](N)C1)C2,,"male human, plasma","oral, 100 mg, single dose, fasted",94.6 µM·h
NC(=O)c1cnc2[nH]ccc2c1N[C@@H]1[C@@H]2CC3C[C@H]1C[C@@](O)(C3)C2,,"healthy Caucasian men, plasma","oral, 200 mg, single dose fasted",1510 ng·h/mL
COc1cc(CCC(C)=O)ccc1O,,"male C57BL/6J mice, brain","oral, 200 mg/kg, 0 to 12 h, low-fat diet",1.98 ± 0.16 nmol·min/g
CCCC[C@H](NC(C)=O)C(=O)N[C@H]1CCC(=O)NC[C@@H](C(=O)N[C@@H](Cc2c[nH]c3ccccc23)C(N)=O)NC(=O)[C@H](CCCNC(=N)N)NC(=O)[C@@H](Cc2ccccc2)NC(=O)[C@H](Cc2c[nH]cn2)NC1=O,,"CD Sprague-Dawley rat, female, plasma","subcutaneous, 1.0 mg/kg/day, day 14, truncated curve, 3 points",712 ng·h/mL
CC(O)CCc1ccc(O)cc1 (centres unmarked),,"male C57BL/6J mice, brain","oral, 200 mg/kg, 0 to 12 h, low-fat diet",18.8 ± 1.65 nmol·min/g
CCCCC1(CCCC)CN(c2ccccc2)c2cc(SC)c(OCC(=O)N[C@@H](C(=O)NCC(=O)O)c3ccccc3)cc2S(=O)(=O)C1,,"human, plasma","oral, 5 mg, no breakfast",2.73 ng·h/mL
